Measured values gathered from unrelated publications.
Values joined by “and” are separate records of one study, mostly repeats; a detail may differ. Numbers after ± are the reported error.

SMILES	assay	test system	conditions	scale	endpoint	value
CN(C)CCCN1c2ccccc2CCc2ccccc21	–	human whole blood	1000 ng/mL, 60 min, 37 °C	–	blood-to-plasma ratio	1.25 ± 0.105
CCS(=O)(=O)Nc1ccc(Oc2ccc(F)cc2F)c(-c2cn(C)c(=O)c3[nH]ccc23)c1	serious Staphylococcal bacteremia	human, relapsed/refractory AML	oral, dose not given	–	treatment-emergent adverse events	11%
Cn1cncc1-c1c(F)cncc1NC(=O)c1c(N)nn2cc(F)cnc12	–	human patients	oral, 180 mg once daily	–	grade ≥3 creatinine increase incidence	0%
CN1C(=O)[C@@H](NC(=O)c2nnc(Cc3ccccc3)[nH]2)COc2cccnc21	phase I single ascending dose	human, male and female	oral, 400 mg, fasted	–	participants with TEAE leading to death	0%
O=c1c2cc(Cl)c(CO)cc2[nH]c(=S)n1Cc1cncnc1	–	mouse, plasma	intravenous, dose not given	–	volume of distribution at steady state	0.86 L/kg
CO[C@H]1C[C@@H]2CC[C@@H](C)[C@@](O)(O2)C(=O)C(=O)N2CCCC[C@H]2C(=O)O[C@H]([C@H](C)C[C@@H]2CC[C@@H](OC(=O)NCCOCCOCCOCCOCCOCCOCCOCCOCCC(=O)N3CCc4cc(Cn5nc(-c6ccc7oc(N)nc7c6)c6c(N)ncnc65)ccc4C3)[C@H](OC)C2)C[C@@H](O)[C@H](C)/C=C(\C)[C@@H](O)[C@@H](OC)C(=O)[C@H](C)C[C@H](C)/C=C/C=C/C=C/1C	–	patients with advanced solid tumours	intravenous, 1.6 mg/3 mg weekly, any grade	–	incidence of Headache TRAE	0%
O=C(Nc1ccccc1)C1CCN(C(=O)Oc2cccnc2)CC1	psychotropic effects VAS	healthy women	100 mg	relative to: pre-dose baseline, direction not given	change in external perception score	0
O[C@H]1CCCN[C@@H]1CCCn1cnc2c(Cl)c(Cl)ccc21	–	healthy CYP2D6 intermediate metabolizers, plasma	oral, 150 mg multiple doses	–	AUCtau	1690 ng·h/mL
CC[C@H](C)[C@H](NC(=O)[C@H](CCCCN)NC(=O)[C@H](CCC(=O)O)NC(=O)[C@H](CCCCN)NC(=O)[C@H](CO)NC(=O)[C@H](CCCCN)NC(=O)[C@H](CCCNC(=N)N)NC(=O)[C@H](Cc1ccccc1)NC(=O)[C@H](Cc1ccccc1)NC(=O)[C@H](CC(=O)O)NC(=O)CNC(=O)[C@H](CC(C)C)NC(=O)[C@@H](N)CC(C)C)C(=O)NCC(=O)N[C@@H](CCCCN)C(=O)N[C@@H](CCC(=O)O)C(=O)N[C@@H](Cc1ccccc1)C(=O)N[C@@H](CCCCN)C(=O)N[C@@H](CCCNC(=N)N)C(=O)N[C@H](C(=O)N[C@H](C(=O)N[C@@H](CCC(N)=O)C(=O)N[C@@H](CCCNC(=N)N)C(=O)N[C@H](C(=O)N[C@@H](CCCCN)C(=O)N[C@@H](CC(=O)O)C(=O)N[C@@H](Cc1ccccc1)C(=O)N[C@@H](CC(C)C)C(=O)N[C@@H](CCCNC(=N)N)C(=O)N[C@@H](CC(N)=O)C(=O)N[C@@H](CC(C)C)C(=O)N[C@H](C(=O)N1CCC[C@H]1C(=O)N[C@@H](CCCNC(=N)N)C(=O)N[C@H](C(=O)N[C@@H](CCC(=O)O)C(=O)N[C@@H](CO)C(=O)O)[C@@H](C)O)C(C)C)[C@@H](C)CC)C(C)C)[C@@H](C)CC	LC-MS	50% pooled human serum	40 µM, 10 min, pH 7.5, 37 °C	relative to: 0 h	remaining intact peptide	18.7% and 17.5% and 10.9%
O=S(=O)([O-])C(F)(F)C(F)(F)C(F)(F)C(F)(F)C(F)(F)C(F)(F)C(F)(F)C(F)(F)F.[K+]	measured: TBARS, MDA	male C57BL/6J mice, liver	concentration not given, EtOH-fed or pair-fed	–	lipid peroxidation	no effect
N[C@@H]1c2ccccc2OC12CCN(c1cnc3c(N4CCCc5ncccc54)n[nH]c3n1)CC2	–	advanced metastatic solid tumour patients	oral, 40 mg once daily, cycle 1, 21 days	–	dose-limiting toxicity	0%
C[C@]1(CO)Cc2ncn(-c3ccc(C#N)c(Cl)c3)c2C(=O)O1	–	healthy European subjects	dose not given, single dose, all doses	–	drug-related headache	2.1%
COc1cc2c(Oc3ccc4[nH]c(C)cc4c3F)ccnc2cc1OCC1(N)CC1	–	paediatric recurrent refractory sarcoma	8 mg/kg	–	grade 1 or 2 Vomiting	33.3%
CC(C)C[C@H](NC(=O)[C@H](CCCCN)NC(=O)OCC1c2ccccc2-c2ccccc21)C(=O)N[C@H](C(=O)N[C@@H](Cc1ccccc1)C(=O)N[C@@H](Cc1ccccc1)C(=O)N[C@@H](CCCCN)C(=O)NCC(=O)N[C@@H](Cc1ccccc1)C(=O)N[C@@H](C)C(=O)N[C@@H](Cc1c[nH]c2ccccc12)C(=O)N[C@@H](CC(N)=O)C(=O)N[C@H](C(=O)N[C@H]1CSSC[C@@H](C(=O)N[C@@H](Cc2c[nH]cn2)C(=O)N[C@@H](CCCNC(=N)N)C(=O)N[C@@H](CCCNC(=N)N)C(=O)N[C@@H](C)C(=O)N[C@@H](CC(N)=O)C(N)=O)NC(=O)[C@H](C(C)C)NC(=O)[C@H](CCCNC(=N)N)NC(=O)[C@H](C(C)C)NC(=O)CNC(=O)[C@H](CC(N)=O)NC(=O)[C@H](CCCNC(=N)N)NC(=O)[C@H](Cc2ccc(O)cc2)NC(=O)[C@H](C(C)C)NC1=O)C(C)C)C(C)C	–	ICR mouse, serum	ip, 5 mg/kg, 3 d dosing, blood day 5	–	blood urea nitrogen	10.4 ± 0.74 mmol/L

A few entries again:
SMILES	assay	test system	conditions	scale	endpoint	value
C[C@]1(CO)Cc2ncn(-c3ccc(C#N)c(Cl)c3)c2C(=O)O1	–	healthy European subjects	dose not given, single dose, all doses	–	drug-related headache	2.1%
N[C@@H]1c2ccccc2OC12CCN(c1cnc3c(N4CCCc5ncccc54)n[nH]c3n1)CC2	–	advanced metastatic solid tumour patients	oral, 40 mg once daily, cycle 1, 21 days	–	dose-limiting toxicity	0%
